Results gathered from unrelated publications.
Numbered parts are unrelated; each lists some results of a single study. Changes are numbered by the printed parent chain.

Set 1
Target: Prothrombin, mature alpha-thrombin (F2, Homo sapiens, UniProt P00734)
Method: aptamer microarray, sandwich
Molecule type: DNA with 2'F-ANA
Medium: in vitro
Tested at: 200 nM
Notes: whole 15-mer aptamer, many near background
With: Cy3 exosite-II aptamer, 400 nM
Reading: higher = stronger binding
Strand: GGTTGGTGTGGTTGG
Under “mean fluorescence intensity”, `2'F-ANA at 1 3 4 8 10 14` is recorded as 49 a.u.
For `2'F-ANA at 5 6 10 11 13 14`, “mean fluorescence intensity” read 67.7 a.u.
Under “mean fluorescence intensity”, `2'F-ANA at 3 4 7 8 9 12 14` is recorded as 424 a.u.
`2'F-ANA at 5 6 8 9 12 14` — result for “mean fluorescence intensity”: 48.7 a.u.
`2'F-ANA at 1 3 6 8 11 14`: “mean fluorescence intensity” 84.8 a.u.
Under “mean fluorescence intensity”, `2'F-ANA at 1 2 6 10 15` is recorded as 54.4 a.u.
`2'F-ANA at 1 2 7 8 9 10 13 15`: “mean fluorescence intensity” 80.8 a.u.
`2'F-ANA at 1 2 3 5 9 12`: “mean fluorescence intensity” 342 a.u.
For `2'F-ANA at 3 7 9 11 12`, “mean fluorescence intensity” read 1170 a.u.
`2'F-ANA at 2 4 7 8 11 12 13 14 15` — result for “mean fluorescence intensity”: 134 a.u.
`2'F-ANA at 1 2 8 9 11 12 13 14 15` — result for “mean fluorescence intensity”: 65.3 a.u.
Under “mean fluorescence intensity”, `2'F-ANA at 1 2 4 6 12 13 14` is recorded as 55.7 a.u.
For `2'F-ANA at 1 4 13 14`, “mean fluorescence intensity” read 53.7 a.u.
For `2'F-ANA at 1 4 5 8 10 12 14 15`, “mean fluorescence intensity” read 44 a.u.
Under “mean fluorescence intensity”, `2'F-ANA at 2 3 5 7 9 10 11 13 14` is recorded as 53.3 a.u.
`2'F-ANA at 1 6 7 8 11 12 13 14` — result for “mean fluorescence intensity”: 70 a.u.
`2'F-ANA at 1 5 8 10 12 13 14`: “mean fluorescence intensity” 44.2 a.u.
`2'F-ANA at 4 6 8 9 10 14 15`: “mean fluorescence intensity” 86.1 a.u.
`2'F-ANA at 1 2 8 13 15` — result for “mean fluorescence intensity”: 155 a.u.
Under “mean fluorescence intensity”, `2'F-ANA at 1 2 4 5 7 10 11 12 13 15` is recorded as 45.1 a.u.
`2'F-ANA at 1 2 7 8 11 12 14` — result for “mean fluorescence intensity”: 68.3 a.u.
`2'F-ANA at 1 4 6 7 8 10 11 12 14 15`: “mean fluorescence intensity” 57.8 a.u.
Under “mean fluorescence intensity”, `2'F-ANA at 1 2 3 4 7 8 11 12 14 15` is recorded as 88.8 a.u.
`2'F-ANA at 2 5 7 8 9 13` — result for “mean fluorescence intensity”: 59.7 a.u.
Under “mean fluorescence intensity”, `2'F-ANA at 1 2 7 8 9 10` is recorded as 53.9 a.u.

Set 2
Target: ABI1, truncated, D143A, DHFR fusion (Arabidopsis thaliana)
Method: DHFR PCA, deep sequencing
Medium: yeast
Notes: methotrexate growth selection, single substitutions
With: (+)-ABA 0.0091 µM
Relative to: wild-type fitted maximum
Reading: higher = stronger binding
Parent: PYL1, truncated, DHFR fusion (Arabidopsis thaliana); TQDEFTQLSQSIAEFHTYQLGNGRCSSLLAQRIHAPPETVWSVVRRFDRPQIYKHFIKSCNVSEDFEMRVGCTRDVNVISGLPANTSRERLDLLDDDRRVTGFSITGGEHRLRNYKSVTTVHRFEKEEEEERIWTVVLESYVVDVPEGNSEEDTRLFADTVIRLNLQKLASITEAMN; partner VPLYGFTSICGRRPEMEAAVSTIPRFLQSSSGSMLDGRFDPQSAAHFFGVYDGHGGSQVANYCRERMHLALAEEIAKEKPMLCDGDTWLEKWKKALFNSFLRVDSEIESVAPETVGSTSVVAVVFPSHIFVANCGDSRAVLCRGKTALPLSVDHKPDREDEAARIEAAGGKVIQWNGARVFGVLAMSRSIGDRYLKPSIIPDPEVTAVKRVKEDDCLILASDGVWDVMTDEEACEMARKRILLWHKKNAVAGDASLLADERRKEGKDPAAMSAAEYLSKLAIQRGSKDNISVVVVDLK
Under “relative binding score”, `Q19P` is recorded as 49.6%.
Under “relative binding score”, `V76T` is recorded as -4.71%.
`R45W`: “relative binding score” -0.283%.
For `D96S`, “relative binding score” read -1.38%.
`E129V` — result for “relative binding score”: 16.3%.
Under “relative binding score”, `I172H` is recorded as -4.78%.
Under “relative binding score”, `F66Y` is recorded as 3.72%.
For `T73Y`, “relative binding score” read 47.2%.
`D97G`: “relative binding score” 7.96%.
`P146K` — result for “relative binding score”: 1.53%.
For `Q2R`, “relative binding score” read 19.4%.
`E131W` — result for “relative binding score”: 27.5%.
`G71T`: “relative binding score” -2.55%.
`K168D` — result for “relative binding score”: -0.108%.
`S63V` — result for “relative binding score”: 6.93%.
For `H110F`, “relative binding score” read 18.5%.

Set 3
Target: RNA binding protein fox-1 homolog 2, RRM domain, GST-SBP tag (RBFOX2, Homo sapiens, UniProt O43251-10, residues 100-194)
Method: RNA Bind-n-Seq
Molecule type: RNA
Medium: in vitro
Tested at: 365 nM
Notes: natural RNA segment, single round, ends assumed
Relative to: no-protein control
Reading: higher = stronger binding
Shared flanks, not repeated: GGGAGUUCUACAGUCCGACGAUC … UGGAAUUCUCGGGUGCCAA
Target sequence (chain): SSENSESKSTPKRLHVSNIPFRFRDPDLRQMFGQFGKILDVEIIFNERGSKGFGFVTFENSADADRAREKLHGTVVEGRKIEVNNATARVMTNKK
Under “RBNS enrichment (R)”, `UUUGUAUUGUUUCAAUUGCAUCUCCCAGAUAAUGUGAAAAUGGUCCAGGAGAAGGCCAAUUCCUAUACGCAGCGUGCUUUAAAAAAUAAAUAAGAAACAACUCUUUGAGA` is recorded as 0.707.
`CCUGCUCCUCAAAUUUUGAUGUGAGUGCCCCUUCCCUGCUGGGGAGAGCUGCUGCCACCGCAUCUCAAUACAACAGCACUGCAAAAUGAAGCAACAAGUCAGAAUCAAAU` — result for “RBNS enrichment (R)”: 0.259.
Under “RBNS enrichment (R)”, `GCCAGGGAGAGGACUCAGAUUUCCUGGAGGCAAAGUCUAUCUCUGAAACUCCAUGAAGACUUUUGCAGCCAGUUCCCACCAAUAUGCCCCAGACGUGAGACAAACAAGGA` is recorded as 0.474.
For `UCCUCCUAUACUUCCUUGUUGCUCUAUAAGAAGUUGGUUGCCCAGAAACAAGAAGAAACAUUGUGAUUGCGAAGUGUCAUUUUGUUUUUUUUUUAAAUAACAUGUAUUAU`, “RBNS enrichment (R)” read 0.604.
For `AAGAAUGUAUGAAGAACUGAAACCCUACCAUUUUUAUUCUUCUUUUACAUUAAAUUGUUGAGAACAGGUUGUGUCUGUUUGCUUCUUGAUCCUCCAACUUCUCAGCACAC`, “RBNS enrichment (R)” read 0.709.
`CGUGACACAGAGGCAGCUGUCAGCUGGCACCCACCUCGUCCCCCAGACCACCCUUCUUCCCAAGUGUUGAUUAUGUGACUUCUGAUACAUCCGUUCUCAAACUCCGGUGU` — result for “RBNS enrichment (R)”: 0.55.
`UUUACCAUAAUGAGUCUUAAGUAGGUUCAUGAUCUACAUUGGGGCCUGGGAUUAUUUUUUUAAUUUUAAGUUUGCAUGAGAUAGCCUAAUAAAUGGAGGUGGGGCCAGGC` — result for “RBNS enrichment (R)”: 6.03.
For `GAGGUACUAGUGGACAGGACUUUCAUGGCUUGGGUCCAUGCUCCUCCCACACCCAAGAGGAGUGGUGGGUUUGAGUUUGGAGGUUUUACUCAAGUGACAGCUUCAGCAUU`, “RBNS enrichment (R)” read 0.668.
`GUGAACAGCAUUUUCGUUCCUGACCCAAUGAGAAAGAGGCACUCAUCUCUGACCCAAUGAGAAAGAGACACUCAUCUCUGGGAAAUGUGCCUCUCUGGAAUCUCCAUCCC` — result for “RBNS enrichment (R)”: 0.519.
For `UUUGGUGAUGAAUAUUUUAUACCCGUCUAAGGGAGAAAGCUAAUGUUUUCCACAAGACUGAACAACGUGUAUUUACACGAGGGUAGACGGCAGAUGCCUGACAGAGAGUG`, “RBNS enrichment (R)” read 0.373.
`AGUGUUUUGAGUCAACUGAAAAAAAGCAUGACUUUUGGAAUCUCUGAAUGCCUUGGUUCUCAGUAUUAUCACUCUAUUGAAUUUUUUUUUCUUAUUAAAGUAUGUAGUUU`: “RBNS enrichment (R)” 4.75.
`AAGCAGCUCCAGUCUCUGAUUUCCAUGGGUCACGUGCUGGGGAUGUGAUGAAGCCUGCAGUCUGCACUGUGUUGCUGAGCACAUGGAUUUCACCACUGGAACACAGGUGU`: “RBNS enrichment (R)” 13.7.

Set 4
Target: Ras GTPase-activating protein-binding protein 1, RRM domain (G3BP1, Homo sapiens, UniProt Q13283)
UniProt Q13283, sequence (whole entry, looked up): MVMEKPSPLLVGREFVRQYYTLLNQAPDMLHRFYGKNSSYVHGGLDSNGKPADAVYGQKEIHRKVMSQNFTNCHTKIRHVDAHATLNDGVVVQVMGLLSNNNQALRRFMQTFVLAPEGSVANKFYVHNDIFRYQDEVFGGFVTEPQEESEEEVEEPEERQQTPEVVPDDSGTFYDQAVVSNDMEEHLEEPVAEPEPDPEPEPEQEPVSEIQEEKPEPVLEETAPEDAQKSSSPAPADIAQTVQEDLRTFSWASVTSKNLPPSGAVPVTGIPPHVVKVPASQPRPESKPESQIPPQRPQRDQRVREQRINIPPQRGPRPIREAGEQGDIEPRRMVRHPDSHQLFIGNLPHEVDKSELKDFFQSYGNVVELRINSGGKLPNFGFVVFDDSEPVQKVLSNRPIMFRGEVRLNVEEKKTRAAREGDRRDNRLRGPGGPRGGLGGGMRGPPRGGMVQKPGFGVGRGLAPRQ
Method: RNA Bind-n-Seq
Molecule type: RNA
Medium: in vitro
Tested at: 1 µM
Notes: whole 134-nt RNA, ends assumed
With: 150 mM KCl
Relative to: input library
Reading: higher = stronger binding
Shared flanks, not repeated: GGGAGUUCUACAGUCCGACGAUC … UGGAAUUCUCGGGUGUCAAGG
For `CACAGACUACACGCACCCACACAGACACAGAGGGAAGGGGUUGGGAUGGGGACAGGGUGCACAGCAGGGCGGGGUAGGACCCCAGCCCCU`, the log2 enrichment was -0.155.
With `UAACUUUAGAGGAGGAUCUGAUGGAUAUGGCAGUGGACGUGGAUUUGGGGAUGGCUAUAAUGGGUAUGGAGGAGGACCUGGAGGUGGAAA` the log2 enrichment was -0.173.
The log2 enrichment of `UCAAGUCCUGUGCUACACAUCGUAUGUACCGAAUCGGGGCCGGGCCGGGGCCGGAAAGUAUUAUGUUACGCCGUUCGGAUCUGCACUUCC` is reported as -1.37.
`ACCAAGCAGGUGGGCAUCUUUGGGAAGUGGGGCAAGGGGGGGAUAGGGAGGGGGGUAACACUUUGGGAACAGGUGGUCCCAGGUCGUUUC` gave a log2 enrichment of -0.525.
`GCAGGAAGUAAAAACAAAUGGAAAUGCUUCGGAUAGUGGCAGGGGUGGGGGUUGCUAAGGAAAGGGUGGGAUGGGAGUGGGUCAAGAGUU` gave a log2 enrichment of 0.722.
For `ACCAUGCAGGUGGGCAUCUUUGGGAAGUGGGGCAAGGGGGCGAUAGGGAGGGGGGUAACACUUUGGGAACAGGUGGUCCCAGGUCGUUUC`, the log2 enrichment was 0.922.
`CAAGUCCUGUGCUACACAUCGUAUGUACCGAAUCGGGGCCCGGCCCGGGGCCCGGGAAAGUAUUAUGUUACGCCGUUCGGAUCUGCACUU` has a log2 enrichment of -0.981.
The log2 enrichment of `CAAGUCCUGUGCUACACAUCGUAUGUACCGAAUCGGAAAAAGGUGGUUUUUUUGGAAAGUAUUAUGUUACGCCGUUCGGAUCUGCACUUC` is reported as -0.25.
With `UCAAGUCCUGUGCUACACAUCGUAUGUACCGAAUCGGGGCCGGGGCCGGGCCGGAAAGUAUUAUGUUACGCCGUUCGGAUCUGCACUUCC` the log2 enrichment was -1.32.
With `AAGUCCUGUGCUACACAUCGUAUGUACCGAAUCGGGGUUUGGGGUUUGGGGUGGGGAAAGUAUUAUGUUACGCCGUUCGGAUCUGCACUU` the log2 enrichment was 0.961.
`UGGGAGGUGGAUUUUGUUUAUUUUUUUAGCUCAUUUCCAGGGGUGGGAAUUUUUUUUUAAUAUGUGUCAUGAAUAAAGUUGUUUUUAAAA` gave a log2 enrichment of 1.13.
The log2 enrichment of `UGGGAGGUGGAUUUUGUUUAUUUUUUUAGCUCAUUUCCAGGGGUGGGAAUUUUUUUUUAAUAUGUGUCAUGAAUAAAGCUGUUUUUGAAA` is reported as 1.33.
With `CUCAAGUCCUGUGCUACACAUCGUAUGUACCGAAUCGGUUUGGUUUGGAAAGGAAAGUAUUAUGUUACGCCGUUCGGAUCUGCACUUCCA` the log2 enrichment was -0.189.
The log2 enrichment of `UCCUGUGCUACACAUCGUAUGUACCGAAUCGGGUUUUUUGGGUUUUUUGGGUUUUUUGGGAAAGUAUUAUGUUACGCCGUUCGGAUCUGC` is reported as -0.0585.

Set 5
Target: CCNB3, cyclin fold, Cln2 fusion (human)
Method: yeast growth competition, sequencing
Medium: yeast
Notes: weak parent motif
Relative to: not given
Reading: higher = stronger binding
Parent: E2F7 docking peptide (human); SSAQRRLEIPSGG; partner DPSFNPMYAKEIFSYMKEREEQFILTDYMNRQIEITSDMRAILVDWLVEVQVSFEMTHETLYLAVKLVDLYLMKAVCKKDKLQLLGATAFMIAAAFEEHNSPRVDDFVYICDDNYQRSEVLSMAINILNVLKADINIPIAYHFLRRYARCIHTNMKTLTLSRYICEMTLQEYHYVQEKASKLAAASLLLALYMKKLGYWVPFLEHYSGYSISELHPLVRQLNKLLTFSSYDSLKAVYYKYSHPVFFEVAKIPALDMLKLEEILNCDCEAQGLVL
`ASAQRRLEIPSGG [S1A]` — result for “normalised enrichment score”: 0.32.
Under “normalised enrichment score”, `SSAQKRLELPSGG [R5K I9L]` is recorded as -0.217.
`SSAARRLEIPSGG [Q4A]`: “normalised enrichment score” 0.33.
For `SSAQRRAEIPSGG [L7A]`, “normalised enrichment score” read 0.446.
Under “normalised enrichment score”, `SSAQRRLEIPSGA [G13A]` is recorded as 0.246.
`SSAQKRLEFPSGG [R5K I9F]` — result for “normalised enrichment score”: 0.00496.
For `SSAQRRLAIPSGG [E8A]`, “normalised enrichment score” read 0.244.
`SSAQRALEIPSGG [R6A]`: “normalised enrichment score” -0.506.
